Measurements of several laboratories.
Protocols differ between the studies behind these lines.
Cell line: ACHN

For `Cc1cc(-c2ccccc2)n(-c2nc(-c3ccc(Cl)cc3)c3c(NC(=O)c4ccccc4)nnc-3[nH]2)n1`, the cell growth was 92% (SRB; 10 µM, NCI60 single-dose screen; baseline: untreated).
With `Cn1cncc1C1=CN(c2ncnc3[nH]cnc23)CCS1` the GI50 was 10.7 µM (renal cancer).
`C#C[C@@]1(O)[C@@H](CO)O[C@@H](n2ccc3c(N)ncnc32)[C@@H]1O` has a TGI of 4.48 µM (SRB; NCI-60 screen).
`Cc1cc(C)n(-c2nc(-c3ccc(Cl)cc3)c3c(NC(=O)c4ccccc4)nnc-3[nH]2)n1` has a cell growth of 99.4% (SRB; 10 µM, NCI60 single-dose screen; baseline: untreated).
With `Cc1cc(=O)[nH]c(=O)n1Cc1cn(-c2c3ccccc3nc3ccccc23)nn1` the growth percentage was 87.4% (NCI60 single-dose screen; 10 µM).
`O=C1NC(=NCc2cccs2)S/C1=C\c1ccc2ncccc2c1` has an IC50 of 4.46 µM (MTS; NCI60 panel).
The growth percent of `CCCCN1CCN(c2ccc3[nH]c(-c4ccc5[nH]c(-c6ccc(C(F)(F)F)cc6)nc5c4)nc3c2)CC1` is reported as -99.5% (SRB; 10 µM, 48 h).
The TGI of `C#C[C@@]1(O)[C@@H](CO)O[C@@H](n2cc(F)c3c(N)ncnc32)[C@@H]1O` is reported as greater than 100 µM (SRB; NCI-60 screen).
`CCCCN1CCN(c2ccc3[nH]c(-c4ccc5[nH]c(-c6ccc(OCC)c(OCC)c6)nc5c4)nc3c2)CC1` has a growth percent of 12.7% (SRB; 10 µM, 48 h).
For `S=C([S][Au-][P+](CCCCCC[P+]([Au-][S]C(=S)n1cccn1)(c1ccccc1)c1ccccc1)(c1ccccc1)c1ccccc1)n1cccn1`, the log10 TGI was greater than -4 (cell growth, NCI-60 screen; renal cancer).
`CCN(CC)c1ccc(C=NNC(=O)CSc2nc3ccccc3c(=O)n2Cc2ccc(S(N)(=O)=O)cc2)c(O)c1` has a TGI of greater than 100 µM (NCI five-dose screen).
For `O=C(Nc1nnc2n3c(=S)[nH][nH]c3nc(-c3ccc(Cl)cc3)c1-2)c1ccccc1`, the cell growth was 78.8% (SRB; 10 µM, NCI60 single-dose screen; baseline: untreated).
`COc1ccc(OC)c(-c2nc3ccc(-c4nc5ccc(N6CCN(C)CC6)cc5[nH]4)cc3[nH]2)c1` gave a growth percent of 100% (SRB; 10 µM, 48 h).
`CCn1cc(-c2cc(Cn3ccnc3)cc3c2CCN([C@H](c2cc(OC)ccn2)C2CC2)C3=O)c(C(F)(F)F)n1` gave an EC50 of 15.7 µM (cell growth, inhibitor; 120 h).
`Cc1cc(=O)[nH]c(=O)n1Cc1cn(-c2cc3ccccc3oc2=O)nn1` gave a growth percentage of 98.9% (NCI60 single-dose screen; 10 µM).
`CCCCN1CCN(c2ccc3[nH]c(-c4ccc5[nH]c(-c6cc(OC)c(OC)c(OC)c6)nc5c4)nc3c2)CC1` gave a growth percent of 86.8% (SRB; 10 µM, 48 h).
`Cc1n[nH]c2nc(-c3ccc(Cl)cc3)c3c(NC(=O)c4ccccc4)nnc-3n12` gave a cell growth of 107% (SRB; 10 µM, NCI60 single-dose screen; baseline: untreated).
For `O=c1ccn(Cc2cn(-c3c4ccccc4nc4ccccc34)nn2)c(=O)[nH]1`, the growth percentage was 95.4% (NCI60 single-dose screen; 10 µM).
`NNc1nc(-c2ccc(Cl)cc2)c2c(NC(=O)c3ccccc3)nnc-2[nH]1` has a cell growth of 108% (SRB; 10 µM, NCI60 single-dose screen; baseline: untreated).
With `CCCCN1CCN(c2ccc3nc(-c4ccc5nc(-c6cc(OC)ccc6OC)[nH]c5c4)[nH]c3c2)CC1` the growth percent was 106% (SRB; 10 µM, 48 h).
`Cc1cc(=O)[nH]n1-c1nc(-c2ccc(Cl)cc2)c2c(NC(=O)c3ccccc3)nnc-2[nH]1` has a cell growth of 98.7% (SRB; 10 µM, NCI60 single-dose screen; baseline: untreated).
`CN1CCN(c2ccc3[nH]c(-c4ccc5[nH]c(-c6ccc(C(F)(F)F)cc6)nc5c4)nc3c2)CC1` has a growth percent of 55.6% (SRB; 10 µM, 48 h).
